Experimental data collected from several papers.
Lines come from different studies, so protocols differ. Numbers after ± are the reported error.
CHRM1: Muscarinic acetylcholine receptor M1 (CHRM1, Homo sapiens, UniProt P11229)
Chain of UniProt P11229 (whole entry, looked up): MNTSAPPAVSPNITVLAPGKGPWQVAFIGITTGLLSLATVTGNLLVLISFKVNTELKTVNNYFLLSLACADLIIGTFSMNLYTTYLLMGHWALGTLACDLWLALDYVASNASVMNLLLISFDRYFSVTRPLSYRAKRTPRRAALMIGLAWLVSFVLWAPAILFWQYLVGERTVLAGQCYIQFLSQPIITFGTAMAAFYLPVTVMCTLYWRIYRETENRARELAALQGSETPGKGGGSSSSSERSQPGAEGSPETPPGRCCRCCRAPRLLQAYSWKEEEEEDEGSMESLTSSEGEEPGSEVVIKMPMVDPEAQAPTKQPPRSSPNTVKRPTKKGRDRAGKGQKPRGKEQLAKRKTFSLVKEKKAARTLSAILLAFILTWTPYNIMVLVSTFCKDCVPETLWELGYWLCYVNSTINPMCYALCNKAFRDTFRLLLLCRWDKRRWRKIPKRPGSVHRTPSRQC
T1: RNA G-quadruplex, G-quadruplex, K+ folded (Homo sapiens); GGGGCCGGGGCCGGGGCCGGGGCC
Chain of UniProt P42336 (whole entry, looked up): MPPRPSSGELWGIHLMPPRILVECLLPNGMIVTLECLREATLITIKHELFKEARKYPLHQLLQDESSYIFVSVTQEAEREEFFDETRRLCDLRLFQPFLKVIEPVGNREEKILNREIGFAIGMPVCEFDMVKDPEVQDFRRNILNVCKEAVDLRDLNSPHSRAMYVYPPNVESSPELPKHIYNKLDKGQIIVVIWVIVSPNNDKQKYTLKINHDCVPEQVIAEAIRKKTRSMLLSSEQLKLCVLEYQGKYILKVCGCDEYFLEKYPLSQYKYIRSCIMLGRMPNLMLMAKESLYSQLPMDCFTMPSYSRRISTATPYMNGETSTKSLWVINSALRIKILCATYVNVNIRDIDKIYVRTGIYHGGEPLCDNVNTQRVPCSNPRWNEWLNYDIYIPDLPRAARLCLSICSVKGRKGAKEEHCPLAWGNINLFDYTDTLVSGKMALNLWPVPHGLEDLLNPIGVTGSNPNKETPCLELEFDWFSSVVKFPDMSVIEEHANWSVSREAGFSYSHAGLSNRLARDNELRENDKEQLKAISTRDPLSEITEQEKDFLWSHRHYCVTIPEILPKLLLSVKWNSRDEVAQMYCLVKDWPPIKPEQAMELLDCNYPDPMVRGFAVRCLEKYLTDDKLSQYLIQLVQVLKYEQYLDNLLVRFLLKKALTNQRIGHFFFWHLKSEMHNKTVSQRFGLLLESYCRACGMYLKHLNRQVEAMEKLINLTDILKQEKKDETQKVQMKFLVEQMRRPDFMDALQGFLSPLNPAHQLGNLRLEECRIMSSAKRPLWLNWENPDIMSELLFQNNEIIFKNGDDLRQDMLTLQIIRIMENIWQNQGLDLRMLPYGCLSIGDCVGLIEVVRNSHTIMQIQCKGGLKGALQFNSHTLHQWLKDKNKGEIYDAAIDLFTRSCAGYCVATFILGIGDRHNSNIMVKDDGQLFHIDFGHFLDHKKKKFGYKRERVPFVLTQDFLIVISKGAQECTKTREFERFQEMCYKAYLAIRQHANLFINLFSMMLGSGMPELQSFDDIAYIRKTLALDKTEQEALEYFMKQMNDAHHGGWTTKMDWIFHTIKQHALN
Chain of UniProt P31422 (whole entry, looked up): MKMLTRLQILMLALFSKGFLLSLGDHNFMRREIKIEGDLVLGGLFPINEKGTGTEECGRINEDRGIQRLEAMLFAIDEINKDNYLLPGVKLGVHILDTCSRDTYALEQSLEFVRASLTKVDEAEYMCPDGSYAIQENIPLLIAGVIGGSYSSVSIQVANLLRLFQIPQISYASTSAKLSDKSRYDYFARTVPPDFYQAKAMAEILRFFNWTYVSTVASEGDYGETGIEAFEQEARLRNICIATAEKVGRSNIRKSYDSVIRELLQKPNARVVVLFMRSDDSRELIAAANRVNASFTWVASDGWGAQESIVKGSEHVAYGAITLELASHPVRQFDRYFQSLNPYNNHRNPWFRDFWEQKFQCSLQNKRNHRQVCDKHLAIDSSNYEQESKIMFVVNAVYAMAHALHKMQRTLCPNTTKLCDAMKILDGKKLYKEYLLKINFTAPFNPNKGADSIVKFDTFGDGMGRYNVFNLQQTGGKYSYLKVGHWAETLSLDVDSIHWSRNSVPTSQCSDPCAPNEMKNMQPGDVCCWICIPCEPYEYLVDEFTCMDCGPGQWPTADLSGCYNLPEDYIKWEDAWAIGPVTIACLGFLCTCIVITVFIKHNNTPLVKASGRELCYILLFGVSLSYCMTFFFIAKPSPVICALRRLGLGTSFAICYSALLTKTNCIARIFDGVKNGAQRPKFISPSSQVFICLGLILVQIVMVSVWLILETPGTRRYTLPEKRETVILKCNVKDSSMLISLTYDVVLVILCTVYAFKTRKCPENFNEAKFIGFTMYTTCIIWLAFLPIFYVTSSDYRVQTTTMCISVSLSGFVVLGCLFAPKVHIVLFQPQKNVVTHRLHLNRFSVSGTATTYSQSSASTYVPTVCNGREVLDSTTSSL
Chain of UniProt P12369 (whole entry, unmodified, looked up): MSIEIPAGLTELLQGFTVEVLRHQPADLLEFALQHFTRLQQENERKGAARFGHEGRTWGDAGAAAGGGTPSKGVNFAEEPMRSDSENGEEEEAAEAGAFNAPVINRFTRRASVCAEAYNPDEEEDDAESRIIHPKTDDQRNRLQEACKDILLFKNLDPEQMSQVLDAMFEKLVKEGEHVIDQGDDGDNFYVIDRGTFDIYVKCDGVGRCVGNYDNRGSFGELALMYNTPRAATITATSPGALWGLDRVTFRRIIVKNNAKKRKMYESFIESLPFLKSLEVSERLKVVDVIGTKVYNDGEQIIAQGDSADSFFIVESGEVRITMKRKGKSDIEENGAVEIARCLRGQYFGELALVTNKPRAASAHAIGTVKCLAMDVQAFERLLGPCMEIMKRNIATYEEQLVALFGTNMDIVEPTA
Chain of UniProt Q7K4Z4 (whole entry, looked up): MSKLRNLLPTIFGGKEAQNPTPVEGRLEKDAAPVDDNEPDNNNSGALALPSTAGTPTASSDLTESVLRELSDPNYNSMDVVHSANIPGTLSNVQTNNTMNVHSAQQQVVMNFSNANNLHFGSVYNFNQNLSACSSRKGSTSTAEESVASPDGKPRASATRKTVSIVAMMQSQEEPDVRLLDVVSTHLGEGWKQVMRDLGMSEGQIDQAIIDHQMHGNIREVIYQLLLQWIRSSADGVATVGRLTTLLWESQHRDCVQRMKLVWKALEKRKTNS
Chain of UniProt P54750 (whole entry, looked up): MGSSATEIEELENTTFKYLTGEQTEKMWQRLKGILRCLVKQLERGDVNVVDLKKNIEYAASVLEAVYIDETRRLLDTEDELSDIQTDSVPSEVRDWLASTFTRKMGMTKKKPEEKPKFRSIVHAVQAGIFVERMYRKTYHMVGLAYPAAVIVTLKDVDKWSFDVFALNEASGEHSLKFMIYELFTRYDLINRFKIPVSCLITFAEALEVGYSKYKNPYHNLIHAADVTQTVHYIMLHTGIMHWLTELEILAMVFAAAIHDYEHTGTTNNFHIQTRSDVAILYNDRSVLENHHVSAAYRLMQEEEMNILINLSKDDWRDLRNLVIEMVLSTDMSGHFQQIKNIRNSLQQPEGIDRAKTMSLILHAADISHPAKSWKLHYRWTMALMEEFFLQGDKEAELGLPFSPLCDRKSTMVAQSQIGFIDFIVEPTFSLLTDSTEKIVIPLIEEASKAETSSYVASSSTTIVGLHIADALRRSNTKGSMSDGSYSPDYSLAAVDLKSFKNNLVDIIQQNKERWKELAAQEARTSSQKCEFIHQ
Chain of UniProt P08173 (whole entry, looked up): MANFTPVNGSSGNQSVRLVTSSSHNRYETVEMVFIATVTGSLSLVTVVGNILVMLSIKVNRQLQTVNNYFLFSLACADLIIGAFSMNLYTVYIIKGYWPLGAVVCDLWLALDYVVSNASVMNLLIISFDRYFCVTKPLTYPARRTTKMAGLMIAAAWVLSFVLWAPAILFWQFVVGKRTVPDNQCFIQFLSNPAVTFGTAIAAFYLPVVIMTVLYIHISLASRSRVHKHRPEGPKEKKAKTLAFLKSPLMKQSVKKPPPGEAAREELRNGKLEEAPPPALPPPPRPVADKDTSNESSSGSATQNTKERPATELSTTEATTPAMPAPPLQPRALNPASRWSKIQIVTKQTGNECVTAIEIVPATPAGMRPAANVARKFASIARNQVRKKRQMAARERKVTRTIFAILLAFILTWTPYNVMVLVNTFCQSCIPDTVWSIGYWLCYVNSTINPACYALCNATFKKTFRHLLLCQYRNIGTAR
Chain of UniProt P06401 (whole entry, looked up): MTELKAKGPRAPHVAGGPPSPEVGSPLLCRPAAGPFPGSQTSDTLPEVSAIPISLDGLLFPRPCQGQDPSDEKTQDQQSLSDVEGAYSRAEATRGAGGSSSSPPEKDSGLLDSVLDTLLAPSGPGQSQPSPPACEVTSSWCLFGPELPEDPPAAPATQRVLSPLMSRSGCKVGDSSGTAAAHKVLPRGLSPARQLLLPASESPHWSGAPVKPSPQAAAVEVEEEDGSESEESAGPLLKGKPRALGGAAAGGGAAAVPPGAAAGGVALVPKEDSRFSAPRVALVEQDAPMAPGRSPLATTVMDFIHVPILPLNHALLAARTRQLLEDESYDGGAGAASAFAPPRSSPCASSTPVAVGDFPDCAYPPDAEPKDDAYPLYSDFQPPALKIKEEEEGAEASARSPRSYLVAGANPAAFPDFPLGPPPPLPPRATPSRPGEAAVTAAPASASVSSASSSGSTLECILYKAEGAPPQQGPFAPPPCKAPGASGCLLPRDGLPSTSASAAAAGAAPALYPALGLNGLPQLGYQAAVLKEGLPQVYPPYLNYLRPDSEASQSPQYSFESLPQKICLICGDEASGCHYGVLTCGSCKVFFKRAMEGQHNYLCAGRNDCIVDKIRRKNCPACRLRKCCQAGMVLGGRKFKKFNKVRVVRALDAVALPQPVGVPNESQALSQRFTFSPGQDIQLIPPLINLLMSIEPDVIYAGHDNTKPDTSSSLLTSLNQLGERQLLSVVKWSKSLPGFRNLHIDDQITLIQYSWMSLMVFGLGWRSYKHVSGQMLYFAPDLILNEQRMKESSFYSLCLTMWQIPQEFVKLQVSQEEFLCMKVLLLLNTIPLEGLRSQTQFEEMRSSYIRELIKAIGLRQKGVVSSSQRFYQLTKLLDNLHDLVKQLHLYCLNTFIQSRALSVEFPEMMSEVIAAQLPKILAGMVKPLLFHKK

Compound = O=C(O[C@@H]1Cc2c(O)cc(O)cc2O[C@@H]1c1cc(O)c(=O)c2c(O)c(O)cc([C@H]3Oc4cc(O)cc(O)c4C[C@H]3O)c2c1)c1cc(O)c(O)c(O)c1; target = Protein immune deficiency (imd, Drosophila melanogaster, UniProt Q7K4Z4); test = inhibitor, SDD-AGE densitometry; conditions = 100 µM, 30 min, room temperature; measurement = reduction of aggregates; value = 58.4%
Compound = CCCCCCCCCCCCCCCC(=O)N[C@@H](CCC(=O)NCCCC[C@H](NC(=O)[C@@H](NC(=O)[C@@H]1CCCN1C(=O)[C@H](CCC(=O)O)NC(=O)[C@H](CC(C)C)NC(=O)[C@@H]1CCCN1C(=O)[C@H](C)NC(=O)c1ccc2c(c1)C(=O)OC21c2ccc(O)cc2Oc2cc(O)ccc21)C(C)C)C(=O)N1CCC[C@H]1C(=O)NCC(=O)N[C@@H](CC(=O)O)C(=O)N[C@@H](CC(N)=O)C(=O)N[C@@H](C)C(=O)N[C@H](C(=O)N1CCC[C@H]1C(=O)N[C@@H](CCC(=O)O)C(=O)N[C@@H](CCC(N)=O)C(=O)N[C@@H](CCSC)C(=O)N[C@@H](C)C(=O)N[C@@H](CCC(N)=O)C(=O)N[C@@H](Cc1ccc(O)cc1)C(=O)N[C@@H](C)C(=O)N[C@@H](C)C(=O)N[C@@H](CC(=O)O)C(=O)N[C@@H](CC(C)C)C(=O)N[C@@H](CCCNC(=N)N)C(=O)N[C@@H](CCCNC(=N)N)C(=O)N[C@@H](Cc1ccc(O)cc1)C(=O)N[C@H](C(=O)N[C@@H](CC(N)=O)C(=O)N[C@@H](CCSC)C(=O)N[C@@H](CC(C)C)C(=O)N[C@H](C(=O)N[C@@H](CCCNC(=N)N)C(=O)N1CCC[C@H]1C(=O)N[C@@H](CCCNC(=N)N)C(=O)N[C@@H](Cc1ccc(O)cc1)C(N)=O)[C@@H](C)O)[C@@H](C)CC)[C@@H](C)O)C(=O)O; target = NPY4R (Homo sapiens, UniProt P50391); test = radioligand displacement; test system = COS-7 transiently expressing; conditions = 1 µM, 90 min, room temperature, added: [3H]-hPP 1 nM; how to read = baseline: total binding; measurement = specific binding; value = 67%
Compound = CN(C)S(=O)(=O)c1ccc(COc2ccccc2-c2cc(=O)n(C3CCCCC3O)cn2)cc1 (stereo not drawn); target = CHRM1; test = positive allosteric modulator, IP1 accumulation; test system = CHO-M1 cells; conditions = 1 µM, 60 min, 37 °C, added: ACh; how to read = baseline: ACh alone, higher = stronger potentiation; measurement = ΔpEC50 of ACh; value = 0.22 ± 0.09 log units
Compound = CCCNC(C)C(=O)Nc1c(C)csc1C(=O)OCC(C)C (stereo not drawn); target = SCN10A (Homo sapiens, UniProt Q9Y5Y9); test = cell membrane chromatography; how to read = higher = stronger binding; measurement = capacity factor k′; value = 0
Compound = CCc1nc2c([nH]1)c(=O)n(C)c(=O)n2C; target = PGR (Homo sapiens, UniProt P06401); test = reporter gene, antagonist, MMTV-luciferase; test system = T47D/A1-2; conditions = 10 µM, 24 h, added: 5 nM progesterone; how to read = baseline: maximal activity; measurement = remaining activity; value = 76%
Compound = Nc1ncnc2c1nc(Cl)n2[C@@H]1O[C@@H]2COP(=O)(O)O[C@H]2[C@H]1O; target = cAMP-dependent protein kinase type II-beta regulatory subunit, holoenzyme with catalytic subunit (Prkar2b, Rattus norvegicus, UniProt P12369, S112A); test = PKA holoenzyme activation, activator, fluorescence anisotropy; how to read = baseline: RIIβ over RIα, higher = RIIβ-selective; measurement = selectivity ratio; value = 0.2
Compound = CCCc1nc2ccccc2n1Cc1ccc(-c2ccccc2C(=O)O)cc1; target = PPARG (Homo sapiens, UniProt P37231); test system = COS-7; conditions = 10 µM, 39 h; measurement = Emax; value = 59.4%
Compound = C=CC(=O)N1CCC(Cc2cccc(C(=O)N3CCN(c4nc(-c5cnc(N)nc5C(F)F)nc(N5CCOCC5)n4)CC3)c2)CC1; target = PIK3CA (Homo sapiens, UniProt P42336); test = covalent inhibitor; measurement = kinact/KI; value = < 100000 M⁻¹ s⁻¹
Compound = NCCOc1cc(C(=O)Nc2cc(OCCN)c3ccccc3n2)nc(C(=O)Nc2cc(OCCN)c3ccccc3n2)c1; target = T1, RNA G-quadruplex, G-quadruplex, K+ folded (Homo sapiens); test = biolayer interferometry; conditions = pH 7.0, 30 °C, KCl 185 mM; measurement = Kd; value = 70 nM
Compound = NS(=O)(=O)c1ccc(COc2ccccc2-c2cc(=O)n(C3CCCCC3O)cn2)cc1 (stereo not drawn); target = CHRM1; test = positive allosteric modulator, IP1 accumulation; test system = CHO-M1 cells; conditions = 10 µM, 60 min, 37 °C, added: ACh; how to read = baseline: ACh alone, higher = stronger potentiation; measurement = ΔpEC50 of ACh; value = 1.52 ± 0.18 log units
Compound = COc1ccc(C)c2sc(NC(=O)NC3CCC3)nc12; target = CHRM4 (Homo sapiens, UniProt P08173); test = calcium mobilization, positive allosteric modulator; test system = CHO expressing hM4 and Gqi5; conditions = concentration not given, added: acetylcholine EC20; measurement = activity; value = inactive
Compound = CCn1cc(-c2ccc(COc3ccccc3-c3cc(=O)n(C4CCCCC4O)cn3)cc2)cn1 (stereo not drawn); target = CHRM1; test = allosteric agonist, IP1 accumulation; test system = CHO-M1 cells; conditions = 10 µM, unit not given; how to read = baseline: maximum ACh response; measurement = change in baseline activity; value = 82 ± 3
Compound = CSc1ccc(/C=C2/C(C)=C(CC(=O)O)c3cc(F)ccc32)cc1; target = PDE1A (Homo sapiens, UniProt P54750); test = cAMP hydrolysis, inhibitor, IMAP fluorescence polarization; conditions = up to 200 µM; measurement = IC50; value = inactive
Compound = C[C@@H]1CN(Cc2ccc3c(c2)c(=O)c(C(N)=O)cn3-c2ccc(F)cc2)C[C@H](C)O1; target = Grm3 (Rattus norvegicus, UniProt P31422); test = antagonist, calcium mobilization; conditions = up to 30 µM, added: glutamate EC80; measurement = activity; value = inactive
Compound = O=c1cc(-c2ccccc2OCc2ccc(Br)cc2F)ncn1C1CCCCC1O (stereo not drawn); target = CHRM1; test = positive allosteric modulator, IP1 accumulation; test system = CHO-M1 cells; conditions = 10 µM, 60 min, 37 °C, added: ACh; how to read = baseline: ACh alone, higher = stronger potentiation; measurement = ΔpEC50 of ACh; value = 1.33 ± 0.12 log units

For quick reference, copied from above:
Compound = O=C(O[C@@H]1Cc2c(O)cc(O)cc2O[C@@H]1c1cc(O)c(=O)c2c(O)c(O)cc([C@H]3Oc4cc(O)cc(O)c4C[C@H]3O)c2c1)c1cc(O)c(O)c(O)c1; target = Protein immune deficiency (imd, Drosophila melanogaster, UniProt Q7K4Z4); test = inhibitor, SDD-AGE densitometry; conditions = 100 µM, 30 min, room temperature; measurement = reduction of aggregates; value = 58.4%
